Measured values of several laboratories.
Compare with care: the assays were run in different laboratories. “And” joins repeats or separate records; there may be more than shown. ± gives the spread as reported.
MT-CYB/UQCRFS1: MT-CYB/UQCRFS1 (Homo sapiens, UniProt P00156+P47985)
UniProt P00156, sequence (whole entry, looked up): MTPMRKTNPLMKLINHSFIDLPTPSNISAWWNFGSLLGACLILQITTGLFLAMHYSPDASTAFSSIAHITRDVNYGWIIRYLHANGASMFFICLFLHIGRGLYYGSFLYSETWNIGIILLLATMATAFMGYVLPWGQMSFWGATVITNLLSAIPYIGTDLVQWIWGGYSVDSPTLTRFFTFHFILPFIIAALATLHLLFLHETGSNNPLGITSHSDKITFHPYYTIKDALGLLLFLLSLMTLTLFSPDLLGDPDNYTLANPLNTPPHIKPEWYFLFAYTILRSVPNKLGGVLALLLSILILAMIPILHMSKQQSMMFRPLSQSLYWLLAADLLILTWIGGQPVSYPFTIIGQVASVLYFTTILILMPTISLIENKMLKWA
UniProt P47985, sequence (whole entry, looked up): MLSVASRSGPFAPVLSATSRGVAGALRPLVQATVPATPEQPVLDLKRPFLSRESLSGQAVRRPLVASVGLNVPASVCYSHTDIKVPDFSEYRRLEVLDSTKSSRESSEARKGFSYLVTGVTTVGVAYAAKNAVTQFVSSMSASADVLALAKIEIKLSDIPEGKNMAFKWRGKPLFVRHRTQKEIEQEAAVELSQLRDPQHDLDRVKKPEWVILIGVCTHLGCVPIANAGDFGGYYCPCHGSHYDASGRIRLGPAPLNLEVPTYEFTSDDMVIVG
T1: preQ1-III riboswitch A84G (Faecalibacterium prausnitzii); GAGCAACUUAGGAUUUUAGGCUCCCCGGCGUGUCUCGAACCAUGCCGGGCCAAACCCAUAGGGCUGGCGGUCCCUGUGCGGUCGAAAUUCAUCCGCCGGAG
UniProt P51575, sequence (whole entry, unmodified, looked up): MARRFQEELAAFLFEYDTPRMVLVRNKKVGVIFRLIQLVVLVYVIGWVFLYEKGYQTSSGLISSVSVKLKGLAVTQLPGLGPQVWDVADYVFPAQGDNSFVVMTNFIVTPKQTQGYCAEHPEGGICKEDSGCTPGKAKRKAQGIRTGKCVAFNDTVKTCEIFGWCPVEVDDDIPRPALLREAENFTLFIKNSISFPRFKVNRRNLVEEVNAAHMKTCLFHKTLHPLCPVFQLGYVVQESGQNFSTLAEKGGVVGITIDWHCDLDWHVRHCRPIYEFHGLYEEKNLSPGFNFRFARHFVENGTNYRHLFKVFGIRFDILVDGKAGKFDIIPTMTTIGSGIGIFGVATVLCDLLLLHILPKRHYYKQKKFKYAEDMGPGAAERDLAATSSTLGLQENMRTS
UniProt P05164, sequence (whole entry, looked up): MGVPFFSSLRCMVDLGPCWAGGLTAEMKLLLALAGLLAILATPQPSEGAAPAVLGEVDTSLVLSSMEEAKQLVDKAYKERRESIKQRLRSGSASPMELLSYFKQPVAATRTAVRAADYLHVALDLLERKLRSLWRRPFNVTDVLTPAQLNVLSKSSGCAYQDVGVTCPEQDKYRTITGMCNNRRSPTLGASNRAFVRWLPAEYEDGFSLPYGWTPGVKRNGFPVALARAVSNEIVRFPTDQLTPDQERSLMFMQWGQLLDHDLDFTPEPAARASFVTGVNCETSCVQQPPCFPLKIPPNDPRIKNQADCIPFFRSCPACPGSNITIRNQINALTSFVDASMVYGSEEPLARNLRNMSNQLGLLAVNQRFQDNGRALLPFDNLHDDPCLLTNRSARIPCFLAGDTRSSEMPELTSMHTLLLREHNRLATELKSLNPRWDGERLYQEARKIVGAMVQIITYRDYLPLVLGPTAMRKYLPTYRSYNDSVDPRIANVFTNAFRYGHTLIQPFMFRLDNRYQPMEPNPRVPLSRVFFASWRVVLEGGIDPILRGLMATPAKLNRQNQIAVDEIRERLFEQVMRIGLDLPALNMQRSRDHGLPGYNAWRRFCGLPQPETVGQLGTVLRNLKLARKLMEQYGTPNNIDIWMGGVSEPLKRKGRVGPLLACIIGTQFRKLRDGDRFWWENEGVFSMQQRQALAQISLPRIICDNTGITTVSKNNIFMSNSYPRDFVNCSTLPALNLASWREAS
UniProt Q695T7, sequence (whole entry, looked up): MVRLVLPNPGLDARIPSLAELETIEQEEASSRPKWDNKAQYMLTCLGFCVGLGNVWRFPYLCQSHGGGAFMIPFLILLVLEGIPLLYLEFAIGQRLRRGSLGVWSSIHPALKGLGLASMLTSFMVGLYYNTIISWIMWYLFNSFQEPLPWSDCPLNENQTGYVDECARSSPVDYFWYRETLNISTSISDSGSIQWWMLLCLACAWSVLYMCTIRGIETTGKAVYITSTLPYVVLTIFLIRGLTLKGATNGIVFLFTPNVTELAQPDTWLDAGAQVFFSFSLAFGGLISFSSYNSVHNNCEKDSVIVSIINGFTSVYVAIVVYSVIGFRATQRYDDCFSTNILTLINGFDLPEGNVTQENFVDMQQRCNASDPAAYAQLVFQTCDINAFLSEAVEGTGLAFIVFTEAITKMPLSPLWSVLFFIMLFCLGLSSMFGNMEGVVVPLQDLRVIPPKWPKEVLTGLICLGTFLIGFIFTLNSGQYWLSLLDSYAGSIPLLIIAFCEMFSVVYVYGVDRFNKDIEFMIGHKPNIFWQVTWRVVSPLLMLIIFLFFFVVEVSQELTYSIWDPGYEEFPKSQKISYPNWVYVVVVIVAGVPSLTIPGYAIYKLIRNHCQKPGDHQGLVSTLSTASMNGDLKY
UniProt P53634, sequence (whole entry, looked up): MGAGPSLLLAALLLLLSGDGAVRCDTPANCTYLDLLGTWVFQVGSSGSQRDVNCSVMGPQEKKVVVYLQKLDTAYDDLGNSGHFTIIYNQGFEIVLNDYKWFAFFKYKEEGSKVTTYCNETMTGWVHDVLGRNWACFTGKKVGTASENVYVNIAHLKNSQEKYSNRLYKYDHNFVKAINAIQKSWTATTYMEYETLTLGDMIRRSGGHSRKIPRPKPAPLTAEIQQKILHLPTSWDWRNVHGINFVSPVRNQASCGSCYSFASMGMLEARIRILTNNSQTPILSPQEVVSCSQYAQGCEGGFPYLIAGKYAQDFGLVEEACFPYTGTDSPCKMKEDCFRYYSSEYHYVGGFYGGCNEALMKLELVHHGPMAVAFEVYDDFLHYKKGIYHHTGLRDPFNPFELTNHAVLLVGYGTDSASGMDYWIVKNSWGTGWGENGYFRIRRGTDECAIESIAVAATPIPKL
UniProt Q13258, sequence (whole entry, unmodified, looked up): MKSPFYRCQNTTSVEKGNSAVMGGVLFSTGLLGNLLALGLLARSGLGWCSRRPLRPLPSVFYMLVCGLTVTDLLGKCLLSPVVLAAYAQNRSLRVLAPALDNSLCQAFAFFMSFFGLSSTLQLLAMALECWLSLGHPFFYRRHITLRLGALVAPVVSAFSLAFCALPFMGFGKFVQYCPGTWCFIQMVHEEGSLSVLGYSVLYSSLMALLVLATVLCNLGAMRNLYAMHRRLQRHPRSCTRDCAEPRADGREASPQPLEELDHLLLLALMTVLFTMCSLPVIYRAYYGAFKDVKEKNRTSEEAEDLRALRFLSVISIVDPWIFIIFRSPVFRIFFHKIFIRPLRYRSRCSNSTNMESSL
UniProt Q62351, sequence (whole entry, looked up): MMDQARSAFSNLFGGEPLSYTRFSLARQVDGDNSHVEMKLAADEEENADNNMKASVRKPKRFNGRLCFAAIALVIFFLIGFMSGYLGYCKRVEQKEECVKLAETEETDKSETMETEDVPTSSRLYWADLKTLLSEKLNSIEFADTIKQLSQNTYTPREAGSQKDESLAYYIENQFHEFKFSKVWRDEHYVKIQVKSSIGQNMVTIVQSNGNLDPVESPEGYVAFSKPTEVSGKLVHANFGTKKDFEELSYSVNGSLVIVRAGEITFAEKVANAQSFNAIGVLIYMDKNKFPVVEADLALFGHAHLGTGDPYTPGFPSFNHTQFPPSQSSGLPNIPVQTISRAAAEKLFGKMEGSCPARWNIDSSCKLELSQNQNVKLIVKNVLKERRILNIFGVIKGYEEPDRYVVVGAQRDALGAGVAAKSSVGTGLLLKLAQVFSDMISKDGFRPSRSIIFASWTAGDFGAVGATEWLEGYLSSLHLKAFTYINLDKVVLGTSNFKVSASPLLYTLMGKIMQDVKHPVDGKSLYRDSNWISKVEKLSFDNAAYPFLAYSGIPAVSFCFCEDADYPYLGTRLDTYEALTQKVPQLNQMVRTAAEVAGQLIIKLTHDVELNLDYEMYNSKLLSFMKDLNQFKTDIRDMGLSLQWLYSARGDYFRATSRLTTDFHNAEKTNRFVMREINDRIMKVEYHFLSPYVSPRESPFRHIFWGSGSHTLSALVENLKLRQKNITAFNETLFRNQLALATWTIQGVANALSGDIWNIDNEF
UniProt Q12908, sequence (whole entry, looked up): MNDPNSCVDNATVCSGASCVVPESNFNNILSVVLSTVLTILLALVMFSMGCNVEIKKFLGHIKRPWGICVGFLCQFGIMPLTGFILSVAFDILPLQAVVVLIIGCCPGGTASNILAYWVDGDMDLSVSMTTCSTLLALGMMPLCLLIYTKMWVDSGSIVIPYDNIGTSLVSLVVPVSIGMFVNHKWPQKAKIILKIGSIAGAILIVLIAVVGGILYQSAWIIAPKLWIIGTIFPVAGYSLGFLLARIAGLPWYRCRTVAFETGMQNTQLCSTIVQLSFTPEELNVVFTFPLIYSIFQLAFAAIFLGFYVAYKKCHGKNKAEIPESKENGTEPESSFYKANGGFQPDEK
UniProt Q86Y07, sequence (whole entry, looked up): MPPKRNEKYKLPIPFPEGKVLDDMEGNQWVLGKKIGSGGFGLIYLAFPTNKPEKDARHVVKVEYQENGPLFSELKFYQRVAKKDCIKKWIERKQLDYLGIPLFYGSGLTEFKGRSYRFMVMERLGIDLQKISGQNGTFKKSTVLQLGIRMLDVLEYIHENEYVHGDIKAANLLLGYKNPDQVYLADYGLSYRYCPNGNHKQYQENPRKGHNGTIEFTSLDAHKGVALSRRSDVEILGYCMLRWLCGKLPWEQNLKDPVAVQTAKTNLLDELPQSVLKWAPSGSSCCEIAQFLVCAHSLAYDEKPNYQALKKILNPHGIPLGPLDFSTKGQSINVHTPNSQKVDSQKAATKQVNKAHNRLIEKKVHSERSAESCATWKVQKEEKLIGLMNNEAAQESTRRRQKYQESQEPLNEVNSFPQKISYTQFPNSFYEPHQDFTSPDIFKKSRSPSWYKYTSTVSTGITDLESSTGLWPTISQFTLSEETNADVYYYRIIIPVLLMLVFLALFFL

SMILES	target	test	system	setting	how to read	quantity	value
CC(=O)c1c(C)c2cnc(Nc3ccc(N4CCN(CCCOc5ccc(CN6CCC(c7ccc8c(c7)CN(C7CCC(=O)NC7=O)C8=O)CC6)cc5)CC4)cn3)nc2n(C2CCCC2)c1=O (stereo not drawn)	CRBN/Zinc finger protein Helios (Homo sapiens, UniProt Q96SW2+Q9UKS7)	degrader, immunoblot, item: Helios	Jurkat	4 h		Dmax	43%
NC(=O)NOCCCCCCCCCC[P+](c1ccccc1)(c1ccccc1)c1ccccc1.O=C([O-])C(F)(F)F	MT-CYB/UQCRFS1	complex III-dependent respiration, Seahorse XF96	HCT-116	10 µM, 24 h	relative to: control	oxygen consumption rate	79.5 ± 7.75%
O=C(COP(=O)(O)O)[C@@H](O)[C@H](O)[C@H](O)COP(=O)(O)O	CTSC (Homo sapiens, UniProt P53634)	thermal proteome profiling	HepG2 cell lysate	concentration not given, 57 over 37 °C	relative to: compound over control	thermal stability ratio	1.42 and 1.63 and 1.75
[H]/N=C(/N)NCC(=O)O	SLC6A6 (Homo sapiens, UniProt P31641, G62A)	binding, microscale thermophoresis		125 µM, room temperature, with: 50 nM labelled protein	higher = more binding	normalised MST signal	-0.0154
CSCC[C@H](NC(=O)[C@H](CCC(N)=O)NC(=O)[C@H](CC(C)C)NC(=O)[C@H](CO)NC(=O)[C@H](CCC(N)=O)NC(=O)[C@H](CC(C)C)NC(=O)[C@H](CCC(=O)O)NC(=O)CNC(=O)[C@@H](NC(=O)[C@H](CO)NC(=O)[C@@H]1CCCN1C(=O)[C@H](CC(=O)O)NC(=O)[C@@H](NC(=O)[C@H](CCC(=O)O)NC(=O)[C@H](CCCCN)NC(=O)[C@H](CO)NC(=O)[C@H](CO)NC(=O)[C@H](CC(C)C)NC(C)=O)C(C)C)[C@@H](C)O)C(=O)N1CCC[C@H]1C(=O)N[C@@H](CCC(=O)O)C(N)=O	Kelch-like ECH-associated protein 1, Kelch domain (KEAP1, Homo sapiens, UniProt Q14145)	binding, ITC		pH 7, 298.15 K		ΔG	-7.9 ± 0.04 kcal/mol
CC(C)OCCn1c(=S)[nH]c(=O)c2[nH]ccc21	Myeloperoxidase (MPO, Homo sapiens, UniProt P05164)	inhibitor, cholesteryl ester hydroperoxide		0.3704 µM	relative to: control	LDL lipid peroxidation	41.6% and 25.5% and 107% and 55.6%
CC[C@@H]1[C@H](F)C(=O)N[C@@H]1COc1nccc2cc(C(N)=O)c(OC)cc12	CAMK4 (Homo sapiens, UniProt Q16566)	ATP-site probe binding, ActivX profiling	THP-1 cell lysate	0.2 mM, Lys2 site		inhibition	-4.7%
CCCCC1(CCCC)CN(c2ccccc2)c2cc(SC)c(OCC(=O)N[C@@H](C(=O)NCC(=O)O)c3ccccc3)cc2S(=O)(=O)C1	SLC10A2 (Homo sapiens, UniProt Q12908)	inhibitor, UPLC-MS	differentiated Caco-2 on transwells	1 µM, 16 h, compound pre-incubation, with: apical bile acids 100 µM		intracellular bile acid accumulation	decreased
NC(=O)NOCCCCCCCCCCCCCCCC[P+](c1ccccc1)(c1ccccc1)c1ccccc1.O=C([O-])C(F)(F)F	MT-CYB/UQCRFS1	complex III-dependent respiration, Seahorse XF96	HCT-116	10 µM, 24 h	relative to: control	oxygen consumption rate	25.5%
Nc1ncnc2c1ncn2[C@@H]1O[C@H](COP(=O)(O)CP(=O)(O)OP(=O)(O)O)[C@@H](O)[C@H]1O	P2X purinoceptor 1 (P2RX1, Homo sapiens, UniProt P51575, E122A)	calcium influx		1 µM	relative to: ionomycin response	calcium influx	27.4% and 20.5% and 16.9% and 16.1%
COc1c(C(=O)O)csc1Br	Protein lin-28 homolog A (Mus musculus, UniProt Q8K3Y3)					Hill slope	-1.4
CC[C@@H](C)[C@@H](NC(=O)[C@@H](Cc1ccc(O)cc1)NC(=O)[C@H]1CCCN1C(=O)[C@@H](CCCNC(=N)N)NC(=O)[C@H](N)Cc1c[nH]cn1)C(=O)N[C@H](C)C(=O)N[C@H](Cc1c[nH]cn1)C(=O)N[C@H](CCCNC(=N)N)C(=O)N[C@@H](C(=O)N[C@H](Cc1ccc(O)cc1)C(=O)N[C@H](CO)C(=O)N[C@H](Cc1ccccc1)C(N)=O)C(C)C	Transferrin receptor protein 1 (Tfrc, Mus musculus, UniProt Q62351)	flow cytometry	B16	6 h, unit not given	relative to: 0 h	surface expression	0.667 and 0.668
CCCN(CCC)c1ccc(C(=O)NCCn2c(C)cc3ccccc32)cc1	PTGDR (Homo sapiens, UniProt Q13258)	receptor antagonism	C6 glioma		relative to: EP2 over DP1	selectivity ratio	> 275 fold
C=CC(=O)N1CCC[C@@H](n2nc(-c3ccc(Oc4ccccc4)cc3)c3c(N)ncnc32)C1	ZAP70 (Homo sapiens, UniProt P43403)			10 µM		remaining activity	210%
NCc1c[nH]c2nc(N)[nH]c(=O)c12	T1, preQ1-III riboswitch A84G (Faecalibacterium prausnitzii)	ITC		NaCl 100 mM, apparent, single-site fit		Kd	27.4 nM
CCc1cnn2c(NCc3ccc[n+]([O-])c3)cc(N3CCCC[C@H]3CCO)nc12	BRD4 (Homo sapiens, UniProt O60885)	19F NMR, item: tyrosine 65		186 µM	relative to: free protein	chemical shift change	0.081 ppm
CCCCC[C@H](O)/C=C/[C@H]1C(=O)C[C@H](O)[C@@H]1C/C=C\CCCC(=O)O	PTGDR (Homo sapiens, UniProt Q13258, M112A)	agonist, ONE-GO BRET		0.002441 µM (2.44 nM)	relative to: wild-type receptor maximum	Gs protein activation	9.2%
O=S(=O)(Nc1nccs1)c1ccc(N=NN(O)c2ccccc2)cc1	α-glucosidase, rat intestine	enzyme activity		20 µg/mL, with: 4-nitrophenyl α-D-glucopyranoside		inhibition	2.5 ± 1.43%
CCCC(C)N1CCC(N(Cc2ccccc2CNC(=O)CCl)C(=O)Nc2cccc(C(F)(F)F)c2)CC1 (stereo not drawn)	DCN1-like protein 1 (Homo sapiens, UniProt Q96GG9)	covalent binder, LC-TOF mass spectrometry		60 µM, overnight, 4 °C, with: DCN1-like protein 1 30 µM		covalent adduct formation	0%
O=CNc1ccc(Br)cc1C=O	Dehaloperoxidase B, ferric (Amphitrite ornata, UniProt Q9NAV7)	product, HPLC		with: 5-bromoindole 500 µM, H2O2 100 µM		share of total products	0.6%
Cc1cccc(N(O)N=Nc2ccc(S(=O)(=O)Nc3cc(C)on3)cc2)c1	α-glucosidase, rat intestine	enzyme activity		240 µg/mL, with: 4-nitrophenyl α-D-glucopyranoside		inhibition	40 ± 0.04%
CCNC(=O)/C=C/c1cccc(Br)c1	SLC6A19 (Homo sapiens, UniProt Q695T7)	inhibitor, radiolabelled uptake	CHO-BC cells	30 µM, with Na+, with: L-[14C]leucine, GPNA 3 mM, JPH203 3 µM		L-leucine uptake	9.09 nmol/6 min/mg protein and 8.62 nmol/6 min/mg protein and 7.34 nmol/6 min/mg protein
Cc1cc(C(=O)Nc2ccc(Cl)cc2Cl)no1	esterase, rabbit liver	substrate, HPLC-UV		pH 7.25, 25 °C		Km	370 µM
NC(=O)NO	MT-CYB/UQCRFS1	complex III-dependent respiration, Seahorse XF96	HCT-116	200 µM, 24 h	relative to: control	oxygen consumption rate	82.7 ± 3.74%
CC(C)C[C@@H](C=O)NC(=O)[C@H](CC(C)C)NC(=O)[C@H](CC(C)C)NC(=O)OCc1ccccc1	Protein transport protein Sec61 subunit alpha isoform 1 (Homo sapiens, UniProt P61619)	Sec61-dependent translocation, inhibitor, item: CD4 signal peptide-FLuc reporter	HEK293	concentration not given, 6 h		FLuc/RLuc ratio	0.276
CCC1(O)CCCN(C(=O)c2ccc(-c3ccc(F)c(NC(=O)CCl)c3)cc2)C1 (stereo not drawn)	DNA dC->dU-editing enzyme APOBEC-3A (Homo sapiens, UniProt P31941)	covalent modifier, intact protein mass spectrometry, item: adduct +26691 Da		250 µM, 1 h, 10-fold molar excess		protein adduct	0%
COc1cc(F)ccc1-c1ncnc(Nc2cccc(C[S@](C)(=N)=O)c2)n1	VRK2 (Homo sapiens, UniProt Q86Y07)	kinase activity		10 µM, with: 10 µM ATP		remaining activity	83%
